Assay results collected from several papers.
Every numbered part comes from another study and shows a few of its results, in no order. Positions count from the first letter of the parent shown.

Series 1
Target: Interferon regulatory factor 3, full length, phosphomimetic (IRF3, Homo sapiens, UniProt Q14653, residues 1-427, S386D/S396D/S398D/S402D/T404D/S405D)
Method: protein-binding microarray
Molecule type: double-stranded DNA, one strand shown
Matrix: in vitro
Concentration: 2540 nM top
Setting: 60-bp whole probe
With: salmon DNA 0.4 mg/ml
Reference: random background probes
Direction: higher = stronger binding
All sequences stand within: GCCTAGCAC … GTCTTGATTCGCTTGACGCTGCTG
Target sequence (chain): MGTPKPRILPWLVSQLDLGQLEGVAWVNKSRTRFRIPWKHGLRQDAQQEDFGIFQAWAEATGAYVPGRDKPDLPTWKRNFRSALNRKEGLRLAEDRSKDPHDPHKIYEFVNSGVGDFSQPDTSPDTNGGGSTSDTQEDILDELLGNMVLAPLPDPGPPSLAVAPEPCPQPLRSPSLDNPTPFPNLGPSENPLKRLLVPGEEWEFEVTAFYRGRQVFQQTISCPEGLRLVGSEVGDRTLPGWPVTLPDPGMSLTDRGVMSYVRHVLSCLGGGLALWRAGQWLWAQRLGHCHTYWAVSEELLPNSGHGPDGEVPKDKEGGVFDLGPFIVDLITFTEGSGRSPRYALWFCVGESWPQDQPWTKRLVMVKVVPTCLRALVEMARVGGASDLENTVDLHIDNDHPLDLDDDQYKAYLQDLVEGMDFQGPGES
For `TTAGGTATCGTACTGGGTTAGTGCTAG`, “fitted relative affinity” read 0.931 z-score.
Under “fitted relative affinity”, `GACGGTCTCGGTTTCGGAACGTGCTAG` is recorded as 5.39 z-score.
`TCATTGTTGTTTTTTGGACTGTGCTAG` — result for “fitted relative affinity”: 0.656 z-score.
`TTAAGCCCACTATCTAGCCCGTGCTAG` — result for “fitted relative affinity”: -0.422 z-score.
`GACGGACTGCTTCTCCTGAAGTGCTAG` — result for “fitted relative affinity”: -0.278 z-score.
Under “fitted relative affinity”, `CTAGGACTGGACTTTCGGTTAGTGCTA` is recorded as 1.11 z-score.
`TCAGCTTTTTTTTTTTTACTGTGCTAG`: “fitted relative affinity” 0.504 z-score.
For `GACGGTCTCGGTATCGGGATGTGCTAG`, “fitted relative affinity” read 1.93 z-score.
`TTAGGTTGCGGTCTCGGTTAGTGCTAG`: “fitted relative affinity” 4.47 z-score.
For `TAAGGTATAAACTTGGGAAAGTGCTAG`, “fitted relative affinity” read -0.363 z-score.
`TTTGATCTCAGTTTCGATTAGTGCTAG` — result for “fitted relative affinity”: 3.72 z-score.
For `TTAGATATCGGGTTTCTATTAGTGCTA`, “fitted relative affinity” read 0.807 z-score.
Under “fitted relative affinity”, `GACGGTCTCTGTATCGGGACGTGCTAG` is recorded as 1.09 z-score.
For `TGTTCATTTTCAAAACTGTTGTGCTAG`, “fitted relative affinity” read 2.67 z-score.
For `TTAGGTATCAGTTTCGGTTAGTGCTAG`, “fitted relative affinity” read 7.52 z-score.
`TCAGAAATTCCTCTGAGACTGTGCTAG`: “fitted relative affinity” -0.351 z-score.
For `GACGGTTTCCTTTCCCTGGCGTGCTAG`, “fitted relative affinity” read 10.2 z-score.
`TTAATGTGTTCTTGGATTCGGTGCTAG` — result for “fitted relative affinity”: 0.149 z-score.

Series 2
Target: CCNA2, cyclin fold, Cln2 fusion (human)
Method: yeast growth competition, sequencing
Matrix: yeast
Setting: strong parent motif
Reference: not given
Direction: higher = stronger binding
Parent: RBL1 docking peptide (human); GSAKRRLFGEDPP; partner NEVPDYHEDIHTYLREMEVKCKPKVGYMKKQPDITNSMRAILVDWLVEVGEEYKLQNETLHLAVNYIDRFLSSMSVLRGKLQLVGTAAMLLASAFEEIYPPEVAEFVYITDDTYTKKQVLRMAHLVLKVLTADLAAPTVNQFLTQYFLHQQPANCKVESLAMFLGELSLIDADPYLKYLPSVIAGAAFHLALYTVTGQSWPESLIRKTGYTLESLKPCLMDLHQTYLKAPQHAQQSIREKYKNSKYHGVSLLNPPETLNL
Under “normalised enrichment score”, `F8I` is recorded as 2.19.
`G9C`: “normalised enrichment score” 6.04.
`P12T` — result for “normalised enrichment score”: 6.22.
`P13M` — result for “normalised enrichment score”: 5.53.
`P13R`: “normalised enrichment score” 6.03.
For `D11C`, “normalised enrichment score” read 6.01.
`G9Q` — result for “normalised enrichment score”: 5.98.
For `K4N`, “normalised enrichment score” read 2.63.
Under “normalised enrichment score”, `S2E` is recorded as 4.03.

Series 3
Target: RNA binding protein fox-1 homolog 2, RRM domain, GST-SBP tag (RBFOX2, Homo sapiens, UniProt O43251-10, residues 100-194)
Method: RNA Bind-n-Seq
Molecule type: RNA
Matrix: in vitro
Concentration: 365 nM
Setting: natural RNA segment, single round, ends assumed
Reference: no-protein control
Direction: higher = stronger binding
All sequences stand within: GGGAGUUCUACAGUCCGACGAUC … UGGAAUUCUCGGGUGCCAA
Under “RBNS enrichment (R)”, `GGGUAGGCAGUGGGGAGUGAGGCCCAAGGGUAGGGUCUGGAUCUCAGAGUAAACUGCCUUGUCUUCCUCAGGUUUUGGAGCCCUGUGAGUUCAAUAAACCUUUUAUGUGG` is recorded as 0.466.
`CCGUUGGCCAACAGCCCUUUCACUUACCAUCCCUGCCUCCCCCGUCCUGUUCCCUUUGACUUCAGCUGCCUGAAACAGCCAUGUCCAAGUUCUUCACCUCUAUCCAAAGG`: “RBNS enrichment (R)” 0.507.
For `AGUGAGCCAAAUGCCCGUUCUUUCUCCCUUCCUUGAACUCCAGGUCCUGUGCUGUGUCUGUACUCAGCCAUGUGUGUUUUGUCUGCUGUCUGUCUUCUGAGGCUUAGCAU`, “RBNS enrichment (R)” read 1.13.
Under “RBNS enrichment (R)”, `CUGCUGCCCCCUCCACCCCCAACCCAGUCCUACCUGUCACACCGGACGGACCCGCUGUGCCUUCUACCAUCGUUCCACCAUUGAUGUACAUACUCAUGUUUUACAUCUUU` is recorded as 0.632.
`UCUUGGGAAAACUAAAAAUUGUACAUCCAUGCUUCAGCCAUAUCAUGGGCCUAAACUAUGAGAGUUCAGAAAUAUAUAAAAGUACAAAAAUCUUCAAAGGUACUUAUUUC`: “RBNS enrichment (R)” 0.681.
For `CUCAGCACCACUUUCAUUCUGGACCUGGGACCUUAGGAGCCGGGUGACAGCACUAACCAGACCUCCAGCCACUCACAGCUCUUUUUAAAAAACAGCUUCAAAAUAUGCAG`, “RBNS enrichment (R)” read 0.497.
`CCCCGAUAUGCCCCGGCACUGAAGUCGGGACACAAUCAGCUUUAACCAAUGGAUGAGGGGGGUGGCCACAGGAGAUGGGGAGAGGAGUCUGAACUAAACCCCUGGCUUUU`: “RBNS enrichment (R)” 0.648.
`CCCUAUGGCUAUAACUUUAAAUAAACUAAACCAAAAAUGUUAUUGAUGUUUUAUAUAUAGAGAGUAGUCUCAUUAGUUUUUGUUACUGUAAUGUUUGAAGUCUCAAAUGC` — result for “RBNS enrichment (R)”: 0.578.

Other studies, line by line
`PhoQ, residues 284 288 289 292 302 303 AGGCYF` gave a fold induction of 1.37 (PhoP, residues 12 14 15 18 19 SGWQI (Escherichia coli, UniProt P23836); Sort-seq, measured: YFP reporter; E. coli; PhoQ-PhoP variant library, with: 10 µM Mg2+; reference: high Mg2+ state, higher = stronger signaling).

Excerpt of the above (series 2):
Under “normalised enrichment score”, `F8I` is recorded as 2.19.
`G9C`: “normalised enrichment score” 6.04.
`P12T` — result for “normalised enrichment score”: 6.22.
`P13M` — result for “normalised enrichment score”: 5.53.
